Measurements from different studies.
Each numbered part is a random draw from the data of one study; scales do not carry over between parts. Positions count from the first letter of the parent shown.

Set 1
Target: CCNB3, cyclin fold, Cln2 fusion (human)
Method: yeast growth competition, sequencing
Medium: yeast
Setting: weak parent motif
Reference: not given
Reading: higher = stronger binding
Parent: SAMHD1 docking peptide (human); ASKSRVQLFKDDP; partner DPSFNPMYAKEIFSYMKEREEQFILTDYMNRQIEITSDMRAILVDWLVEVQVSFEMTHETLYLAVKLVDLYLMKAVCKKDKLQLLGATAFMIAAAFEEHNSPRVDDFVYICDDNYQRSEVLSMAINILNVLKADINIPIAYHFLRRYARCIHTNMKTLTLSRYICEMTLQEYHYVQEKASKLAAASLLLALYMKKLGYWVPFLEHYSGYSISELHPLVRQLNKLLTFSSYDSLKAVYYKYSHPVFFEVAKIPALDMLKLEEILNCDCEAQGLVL
Change	normalised enrichment score
S2R	-0.243
S4D	-0.0391
R5I	0.111
K3V	-0.182
V6E	-0.279
F9K	-0.157
D12H	0.17
S2P	-0.128
K10N	0.0728
K10R	-0.00327
V6R	0.11
D12G	0.0308
S2I	0.284
S2Y	0.0822
D11P	0.113
D12N	0.112
Q7H	0.164

Set 2
Target: Sal-like protein 4, full length isoform B (SALL4, Homo sapiens, UniProt Q9UJQ4-2, residues 1-616)
Method: universal PBM
Form: double-stranded DNA, one strand shown
Medium: in vitro
Tested at: not given
Setting: 8-mer, flanks averaged, mean of replicates
Reading: higher = stronger binding
Target sequence (chain): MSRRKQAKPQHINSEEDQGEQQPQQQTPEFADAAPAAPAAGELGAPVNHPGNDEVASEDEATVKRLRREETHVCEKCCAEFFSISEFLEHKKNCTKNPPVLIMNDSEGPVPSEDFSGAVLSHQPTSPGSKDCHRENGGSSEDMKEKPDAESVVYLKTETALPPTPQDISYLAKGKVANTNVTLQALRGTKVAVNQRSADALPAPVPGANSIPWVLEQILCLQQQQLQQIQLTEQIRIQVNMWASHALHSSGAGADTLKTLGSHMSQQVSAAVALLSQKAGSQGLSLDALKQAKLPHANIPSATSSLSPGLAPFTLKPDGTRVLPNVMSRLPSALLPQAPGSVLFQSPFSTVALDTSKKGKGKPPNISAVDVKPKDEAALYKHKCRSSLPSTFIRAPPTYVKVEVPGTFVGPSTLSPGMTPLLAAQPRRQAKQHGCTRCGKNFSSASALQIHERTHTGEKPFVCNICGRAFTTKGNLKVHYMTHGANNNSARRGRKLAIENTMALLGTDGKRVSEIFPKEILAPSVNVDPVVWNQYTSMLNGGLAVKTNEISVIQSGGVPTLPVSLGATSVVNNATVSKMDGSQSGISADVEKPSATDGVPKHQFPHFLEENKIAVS
Sequence	E-score
CATCCGCG	-0.0786
CACTTGAA	0.0737
CGGGACAA	-0.114
CAAGAGCG	-0.174
CTACGCTC	-0.147
CAGATGGA	0.0115
GCGGGCAC	-0.184
GACACTGA	-0.0783
AGCATTAG	0.0737
CCGTAGTA	-0.035
CATACGCA	0.148
CGTCCTAA	-0.0325
GATAGATC	0.0554
GCAAGAGC	-0.161
AGTGCCCC	-0.128
TAACGTGA	0.178

Set 3
Target: RNA binding protein fox-1 homolog 2, RRM domain, GST-SBP tag (RBFOX2, Homo sapiens, UniProt O43251-10, residues 100-194)
Method: RNA Bind-n-Seq
Form: RNA
Medium: in vitro
Tested at: 365 nM
Setting: natural RNA segment, single round, ends assumed
Reference: no-protein control
Reading: higher = stronger binding
Residues (chain): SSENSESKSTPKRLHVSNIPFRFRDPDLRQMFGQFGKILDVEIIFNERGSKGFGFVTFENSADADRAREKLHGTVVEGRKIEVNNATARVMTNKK
Sequence	RBNS enrichment (R)
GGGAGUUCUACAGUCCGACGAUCAAAUUCAGACAACACACAUGGAUCCCCUUAAAACAUGUAAAUGUGUCAGAACACGGUUGACCUGCCGCCUUCUUGAACCUGGUGGCCCCCGUUGGAACUAUCAGUGGCGUUGGAAUUCUCGGGUGCCAA	0.358
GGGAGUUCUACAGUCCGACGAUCAGUGUAGGUAAUGUAAAACAGUAAGCUCAAAUUGCAGAAGCCAGUAUCCUACAGAAAUUUAAGUAGCUACUGCUUCUCCUGAAAGCCCAAGUUGAAAAUGGGACCACAGGUGGAAUUCUCGGGUGCCAA	0.616
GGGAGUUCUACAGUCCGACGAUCGCUCAAUCUAGGACUCUCAGCUUCCUGCGCUGCUGGACACAUUGACCUCUGUGCAAACAUUGUAGACUUCUUAUUGCUACUCAAUUCUUGCUACUGCUCAUGAUUCAAAUUGGAAUUCUCGGGUGCCAA	0.648
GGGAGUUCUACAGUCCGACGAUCUGUAUGGCUACCGGAAACAGGUGGGUCACCUCCUGCAAGAAGUGGGGCCUCGAGCUGUCAGUCAUCAUGGUGCUAUCCUCUGAACCCCUCAGCUGCCACUGCAACAGUGGUGGAAUUCUCGGGUGCCAA	0.188
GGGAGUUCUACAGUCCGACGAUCGAGCCCAGCUUCCCCCAUGUACAACAGGCACUUCCUAAACUCGGUUAUGAGGCUUUCAAUCGUGGAAGCUCAGGAGGGAAUGGUCCUGAUAGUGACAUCUGGGACCCCAGUGGAAUUCUCGGGUGCCAA	0.386
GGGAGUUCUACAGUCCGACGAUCCUUGGCACUGAUGGGCACUGGAAAACAUAGAGUAGACCUGAGAUGCUGGUCAAGCCCCCUUUGAUUGAGUUCAUCAUGAGCCGUUGCUAAUGCCAGGCCAGUAAAAGUAUUGGAAUUCUCGGGUGCCAA	0.606
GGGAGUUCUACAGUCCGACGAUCAAUUGCUGUUUUUGUUGCUGUAGUACCUUAUGAAUUCUUAAUUCAUUGAGACUUAGUGACCAUCUGGGUCCAUGUUAAUAUCAUAUAAUAGCAAAUUCCUUUCAGAAGUCUGGAAUUCUCGGGUGCCAA	0.587
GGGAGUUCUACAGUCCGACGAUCAAAUUCCAAAUAGUUUUAUUUUUCACGCACAAUUUUCCCCAGUUCAAAGGACUGUUACUUUAUUAUUGUAUUCAACACUCAUUGUGUGUAUUACCACAAAUACUACCGACUGGAAUUCUCGGGUGCCAA	0.948
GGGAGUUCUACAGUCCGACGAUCAAAAGAGACAAGCUCUGAGGGCAAAACCCAUACAAAUUUGGAGCAAAUAAAAGCCCAGGUCUGAGAUGUUCACACAAGCAAUUUCUCUGCACUGCUGUGUGGGCCGUGCAUGGAAUUCUCGGGUGCCAA	0.664
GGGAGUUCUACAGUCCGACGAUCAAAACAAUGUGAUUCAUUCCAAAGUAACAGAAGGCUAUUUGUAAGAAAGAUAAAGGCUUGUGAACAAAGAAAGCUAAGCUGUUGUACAUAUUGUAGUUGGCUGUGCAUGGUGGAAUUCUCGGGUGCCAA	29.1
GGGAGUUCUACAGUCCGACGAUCCUGCCUCUCACCUCCGAGCACUACAUUGUGGCUGUCCCCUGCCCGCCUGCCCGCCUUCUGUCCUGGAUCAGGAAGAUGGUAGCCUGCUGUUAGUAGCUUCACAGGGCUUUUGGAAUUCUCGGGUGCCAA	0.364
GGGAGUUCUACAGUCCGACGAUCCCAGUGUUCUGUUAAUAUUAUUUGUAAUUUAGUUUGUAAAUUCAUUAAAAGAAAAUAUUCUCAGCUGAGAGUGAAUCUCUUUCAUAUUUAUCCUUCAUUUAUUUUUUUACUGGAAUUCUCGGGUGCCAA	1.26

Set 4
Target: Histone acetyltransferase KAT6A, both winged helices, GST fusion (KAT6A, Homo sapiens, UniProt Q92794, residues 1-181)
Method: protein binding microarray
Form: double-stranded DNA, one strand shown
Medium: in vitro
Tested at: not given
Setting: 8-mer, flanks averaged, mean of 2 arrays, mostly near background
Reference: not given
Reading: higher = stronger binding
Construct (chain): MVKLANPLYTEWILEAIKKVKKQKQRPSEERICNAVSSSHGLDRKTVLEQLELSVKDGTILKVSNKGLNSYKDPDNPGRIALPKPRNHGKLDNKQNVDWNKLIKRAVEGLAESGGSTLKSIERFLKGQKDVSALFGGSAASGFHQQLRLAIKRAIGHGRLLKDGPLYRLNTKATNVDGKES
Sequence	E-score
ATTACGCA	0.147
AATAGTGT	-0.0427
GATGTCGA	0.0212
CTACCTAC	0.0253
ATGACTCA	-0.0395
CAATCAAA	-0.0537
ACGAAGGG	-0.0762
ATAGTAGG	-0.0478
ATAGATCA	-0.0752
GAAGGCCA	-0.159
GGGGTTCA	-0.0958
AGGTGTAC	-0.0467
CCCGTAGC	0.236
TCGTGGCA	-0.186
TAGGCGGA	0.0915
CACGACTG	0.0295
ACACAAGG	-0.126
ATCGTCAT	7e-05
AATTGCTA	-0.0414
GATTTCCA	-0.0676
ACCTGAAT	-0.0595
GGACACAA	-0.0649
CCCGAGGA	0.0248
ACCTAAAC	-0.105
AGGCTGCA	-0.276

Set 5
Target: BATF2, bZIP domain (human)
Method: DHFR protein complementation
Medium: yeast
Setting: single substitutions, most at no-binding floor
Reference: wild-type JUN-FOS pair
Reading: higher = stronger binding
Parent: JUN, bZIP domain (human); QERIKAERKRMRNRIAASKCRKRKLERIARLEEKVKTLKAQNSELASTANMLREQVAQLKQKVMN; partner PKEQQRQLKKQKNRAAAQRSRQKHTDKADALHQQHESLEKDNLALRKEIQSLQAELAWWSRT
Change	binding fitness
S47G	-0.345 natural log
A40H	-0.351 natural log
K36T	-0.472 natural log
K36W	-0.727 natural log
K39Q	-0.333 natural log
E54R	-0.472 natural log
N42P	-1.4 natural log
E44S	-0.484 natural log
M51I	-0.275 natural log
L52R	-1 natural log
Q41C	-1.53 natural log

Excerpt of the above (set 2):
Sequence	E-score
CAAGAGCG	-0.174
CTACGCTC	-0.147
CAGATGGA	0.0115
GCGGGCAC	-0.184
GACACTGA	-0.0783
AGCATTAG	0.0737
CCGTAGTA	-0.035
CATACGCA	0.148
